Experimental data pooled from the literature.
Each line is one published result; not all experiments were run side by side. Values joined by “and” are separate records of one study, mostly repeats; a detail may differ. ± gives the spread as reported.

SMILES | cell line | assay | conditions | scale | endpoint | value
Cn1ncc(-c2ccc3c(=O)[nH]nc(CN)c3c2)c1-c1c(F)c(Cl)cc(OC2CC2)c1C#N | SK-LU-1 | cell viability, inhibitor, CellTiter-Glo | 120 h, baseline-subtracted |  | IC50 | 0.13 µM
CN1CCCNC(=O)c2cccc(c2)C(=O)NCCCN(C)CCCNc2cccc3c2C(=O)c2cccc(c2C3=O)NCCC1 | SAS | RNA-Seq, item: RBM12 mRNA | 1 µM, 6 h | reference: untreated cells | log2 fold change | -0.966
CC(C)c1ccc(N(C)c2ccc3c(c2)OCC[C@H]3CNc2cnccc2C(=O)O)cc1 | NCI-H2122 | cell growth or viability, ATP luminescence | 7 days |  | IC50 | 0.0239 µM
Cc1ccc(-n2cc(CSc3nc4ccccc4n3Cc3cn(-c4ccc(C)cc4)nn3)nn2)cc1 | MDA-MB-231 | MTT | 15.6 ppm |  | viability | 24.3%
COC1=C2CC(C)CC(OC)C(O)C(C)C=C(C)C(OC(N)=O)C(OC)C=CC=C(C)C(=O)NC(=CC1=O)C2=O (stereo not shown) | Rh30 | ChIP-seq, item: H3K36me3 peak | concentration not given, PGAM5 intron chr12:133271200-133281799 | reference: untreated control | log fold change | -0.505
O=S1(=O)CC2CCCCC2CS1 (stereo not shown) | MDA-MB-468 | MTT | 1.56 µM, 72 h |  | viability | 28.8%
O=C(C[Se]C(=O)c1ccccc1Nc1cccc(C(F)(F)F)c1)Nc1cccc(C(F)(F)F)c1 | NCI60 colon subpanel | NCI60 five-dose screen |  |  | mean TGI | 10.6 µM
COc1cccc(OC)c1-c1cc(C(=O)NC2(C(=O)O)C3CC4CC(C3)CC2C4)nn1-c1ccc(C(=O)N(C)CCCN(C)C(=O)[C@H](CCCCNC(=O)[C@H](CC(C)C)NC(=O)C2OC2C(=O)O)NC(=O)CN2CCN(CC(=O)[O-])CCN(CC(=O)[O-])CCN(CC(=O)[O-])CC2)cc1C(C)C.[177Lu+3] (mixture of isomers) | HT-29 |  | concentration not given, 240 min | reference: added activity | surface-bound fraction | 4.33 ± 0.48%
C=CC(=O)N1[C@H](c2ccc3c(c2)OCO3)c2[nH]c3ccccc3c2C[C@@H]1C(=O)NC | rat DRG neurons |  | 3.333 µM, 48 h, with: vincristine 40 nM |  | mean neuron degeneration | 18.2%
COc1cc(/C=C/C(=O)/C=C(O)/C=C/c2ccc(OCC(=O)N3CCOCCOCCOCCOCC3)c(OC)c2)ccc1OCC(=O)N1CCOCCOCCOCCOCC1 | SK-LU-1 | cell growth or viability, SRB | 25 µM |  | inhibition | 100%
O=C(O)C1OC(Oc2cc(O)c3c(=O)c(O)c(-c4ccc(O)cc4)oc3c2)C(O)C(O)C1O (stereo not shown) | MDCKII-UGT1A1/MRP2 cells | glucuronide efflux, substrate |  |  | Jmax | 12 ± 2.93 pmol/mg/min
O=C(C[Se]C(=O)c1cc2ccccc2[nH]1)Nc1cccc(C(F)(F)F)c1 | NCI60 colon subpanel | NCI60 five-dose screen |  |  | mean TGI | 6.45 µM
CCN(C(=O)c1cc(F)ccc1Oc1nncnc1N1CCC2(C1)CN([C@H](CCCN(C)CCOC)C(C)C)C2)C(C)C | UO-31 | cell growth or viability | 7 days |  | GI50 | > 10 µM
CCn1ccc(C2CCCN2S(=O)(=O)c2cc(C)c(C)cc2C)n1 (stereo not shown) | human monocytes | phagocytosis of anti-D opsonised RBCs, monocyte monolayer | concentration not given |  | inhibition of phagocytosis | inactive
CC(=O)N[C@@H](Cc1ccc(O)cc1)C(=O)N1CSC[C@H]1C(=O)N[C@@H](C)C(=O)N[C@@H](CC(=O)O)C(=O)COC(=O)c1c(C)cccc1C | THP-1 cells expressing FKBP-caspase-11 | pyroptosis, inhibitor | concentration not given, with: B/B dimerizer |  | LDH release | 49.4% and 42.8% and 45.4%
COC(=O)c1cc(NC2=NC(=O)C(=Cc3ccc(N(C)C)cc3)S2)ccc1OC(C)=O | MCF7 | GC-MS, item: L-Leucine | 1 µM | reference: DMSO | metabolite level | 0.5 fold change
CCOc1cncc(-c2ccc(NC(=O)C3(c4ccnc(NS(=O)(=O)C5CC5)n4)CCOCC3)nc2)n1 | SK-N-AS | cell growth or viability, ATP luminescence | 72 h |  | IC50 | 0.041 µM
Cc1c(Cl)cccc1Nc1ccccc1C(=O)[Se]CC(=O)Nc1cccc(C(F)(F)F)c1 | NCI60 colon subpanel | cell growth | 10 µM, 48 h, one-dose |  | mean growth percent | -27.4%
CSC(=S)N/N=C(\C)c1ccc(Nc2nnc(-c3ccc(Cl)cc3)c3ccccc23)cc1 | HepG2 | cell growth or viability, MTT | 2.5 µM, 24 h |  | viability | 7.17%

SMILES | cell line | assay | conditions | scale | endpoint | value
CCn1nc(Cl)c2c1-c1cnc(N)c(c1)O[C@H](C)c1cc(F)ccc1-c1nn(C)cc1C2 | Ba/F3 EML4-ALK v1 | cell viability |  |  | Hill slope | 2.13
Cn1ncc2cc(-c3cncc(Cl)c3N3CCC4(CCNC4=O)CC3)ccc21 | LS174T | gene expression, microarray, item: GDF15 (PDF) mRNA | concentration not given, 24 h | reference: untreated cells | log2 fold change | -4.21
C#CCCCC(F)/C=C/C(=O)NC1(c2ccc(-c3nc4ccn5c(=O)[nH]nc5c4cc3-c3ccccc3)cc2)CCC1 (stereo not shown) | MDA-MB-468 | cell viability |  |  | EC60 | 3.2 µM
CN(C)CCN1CCN(c2ccc3nc(-c4ccc5nc(-c6ccc(C(F)(F)F)cc6)[nH]c5c4)[nH]c3c2)CC1 | UO-31 | SRB | 10 µM, 48 h |  | growth percent | 131%
COC(=O)[C@@]1(C)C=C(C(=O)Nc2cccc(C(=O)Nc3ccc(Nc4nccc(-c5cccnc5)n4)c(C)c3)c2)C(=O)CC1 | SH-SY5Y MKK7 ACT | c-Jun Ser73 phosphorylation, western blot | 6 h, with: doxycycline |  | EC50 | ~0.5 µM
CCN(CC)CC(=O)Nc1cccc(-n2cc(-c3ccc4ccc(-c5cn(-c6cccc(NC(=O)CN(CC)CC)c6)nn5)cc4c3)nn2)c1 | RCC4 | PCR angiogenesis array, item: TNF | 5 x IC50, 2 h, normoxia | reference: untreated | fold regulation | 1.16 fold
Fc1cncc(-c2ccc3[nH]c4ncnc(N[C@H]5CC[C@H](N6CCOCC6)CC5)c4c3c2)c1 | TMD8 |  | concentration not given |  | STAT3 phosphorylation and IL-6 secretion | decreased
CNS(=O)(=O)Nc1nccc(Cc2c(C)c3ccc(Oc4ncccc4F)cc3oc2=O)c1F | Calu-6 | cell viability | 7 days |  | IC50 | 0.0323 µM
COc1cc(N2CCN(C(=O)C3CCCN3)CC2)ccc1Nc1ncc(Cl)c(Nc2ccccc2P(C)(C)=O)n1 (stereo not shown) | Ba/F3 EML4-ALK | flow cytometry | concentration not given, 1 h |  | late apoptotic cells | 3.24% and 2.77% and 3.28%
NC(Cc1ccccc1)C(=O)N1CC(=Cc2ccc(Cl)c(Cl)c2)C(=O)C(=Cc2ccc(Cl)c(Cl)c2)C1 (stereo not shown) | BRD4-HiBiT cells | BRD4 degradation rescue, inhibitor | 24 h, with: dBET6 500 nM |  | EC50 | 0.102 µM
O=C(C[Se]C(=O)c1ccc2ccccc2n1)Nc1cccc(C(F)(F)F)c1 | NCI60 colon subpanel | cell growth | 10 µM, 48 h, one-dose |  | mean growth percent | -54.2%
CCNc1cc2c(cc1C)C1(c3cc(C)c(NCC)cc3O2)c2ccccc2C(=O)N1N=Cc1c[c-]c(-c2ccccn2)cc1.Cc1c(C)c(-c2ccc(-c3ccccc3)cc2)[c-](C)c1C.[Cl-].[Ir+3] | A549 | PI flow cytometry | 0.25 x IC50, 24 h |  | S phase cells | 30.07 ± 0.2%
CN(C)c1ccc(-n2cc(COC(=O)[C@@]3(C)C=C(C(=O)OC(C)(C)C)C(=O)CC3)nn2)cc1 | HeLa | quantitative western blot | concentration not given, 10 (unit not given), with: EGF |  | pRSK/tubulin ratio | 0.263
O=C(Nc1nnc2c1c(-c1ccc(Cl)cc1)nc1sc(=Cc3ccco3)c(=O)n12)c1ccccc1 (mixture of isomers) | Malme-3M | SRB | 10 µM, NCI60 single-dose screen | reference: untreated | cell growth | 77.8%
COc1ccc(NC(=O)c2ccc3[nH]c(-c4ccc(N(C)C)cc4)nc3c2)cn1 | HCT116 | IncuCyte | concentration not given, 10 h |  | dead cell to confluence ratio | 65.6 and 15.4 and 46.7
CC(C)n1nc(C(F)F)cc1C(=O)Nc1ccc([C@H]2[C@@H](O)CCCc3cncn32)c(-c2ccccc2)c1 | BRD4-HiBiT cells | BRD4 degradation rescue, inhibitor | 2 h, with: dBET6 500 nM |  | EC50 | 0.0622 µM
CCCC(CCC)C(=O)OCc1cn(-c2cc3ccccc3oc2=O)nn1 | LOX IMVI | NCI60 single dose | 10 µM |  | growth | 94.7%
Cc1ncsc1-c1ccc(C(C)NC(=O)C2CC(O)CN2C(=O)C(NC(=O)CCCCCCCCCCN2CCCC(Nc3ncc(Cl)c(Nc4ccccc4S(=O)(=O)C(C)C)n3)C2)C(C)(C)C)cc1 (stereo not shown) | 22Rv1 | RNA-seq, item: ZC3HC1 mRNA | concentration not given | reference: DMSO | log2 fold change | -1.19
